Published values pooled from the literature.
Compare with care: the assays were run in different laboratories.
MET: Hepatocyte growth factor receptor (MET, Homo sapiens, UniProt P08581)

Nc1ccc(/C=C/C(=O)N2CCc3c(oc4c(-c5ccc(F)cc5)cc(-c5ccc(C(=O)N6CCC(F)(F)CC6)cn5)cc34)C2)cn1  remaining binding (MET; binding, competition with immobilised ligand; 1 µM): 100%
C[C@H](NCc1ccc(-c2ccc(C(F)(F)F)cc2)cc1)C(N)=O  inhibition (MET; cell-free assay, competition with immobilised ligand; 1 µM): 4%
N[C@H](C(=O)N1CCCC1)C1CCN(c2nccc3c(-c4ncc(Cl)cc4Cl)cccc23)CC1  inhibition (MET; kinase activity, inhibitor; 10 µM, added: ATP 1 mM): 2.2%
O=C(CN1CN(c2ccccc2)C2(CCN(C(=O)c3cnc4[nH]ncc4c3)CC2)C1=O)NCC(F)(F)F  inhibition (MET; inhibitor; concentration not given): < 50%
CCOC(=O)[C@@H]1Cc2c(cc([N+](=O)[O-])cc2[N+](=O)[O-])[C@H](O)[C@]12C(=O)Nc1ccc(Br)cc12  remaining binding (MET; KINOMEscan; 100 nM; baseline: DMSO control): 57%
O=C1NC(=O)c2c1c1cc(F)c[n+]3c1c1c2c2cc(O)ccc2[n]1[Ru-4]312([N]=C=S)[S+]3CC[S+]1CC[S+]2CC3 (stereo not drawn)  remaining activity (MET; enzyme activity; 100 nM, human enzyme, added: 10 µM ATP; baseline: untreated): 91%
CC(C)[C@H]1NC(=O)C[C@H]2/C=C/CCSSC[C@@H](NC1=O)C(=O)N[C@H](Cc1cccc3ccccc13)C(=O)NCC(=O)O2  inhibition (MET (Homo sapiens, UniProt P08581, M1250T); enzyme activity, inhibitor; 10 µM): -2.7%
O=C(O)c1ccccc1/C=N/Nc1nc(-c2ccccc2Cl)cs1  inhibition (MET; enzyme activity, inhibitor; 1 µM): -8.5%
CS(C)(=O)=Nc1ccc(-c2ccc(-c3nc4cc(O[C@@H]5CO[C@H]6[C@@H]5OC[C@H]6O)[nH]c4cc3F)cc2)cc1  inhibition (MET (Homo sapiens, UniProt P08581, D1228N); enzyme activity, inhibitor; 10 µM): -23%

Excerpt of the above:
O=C(CN1CN(c2ccccc2)C2(CCN(C(=O)c3cnc4[nH]ncc4c3)CC2)C1=O)NCC(F)(F)F  inhibition (MET; inhibitor; concentration not given): < 50%
